Results of several laboratories.
Protocols differ between the studies behind these lines.
Effect on: DPPH scavenging

Compound | method | time | IC50
COc1cc(CN2CCN(c3ccc(OC(F)(F)F)cc3)CC2)c2cc3[n+](cc2c1O)CCc1cc2c(cc1-3)OCO2 | absorbance | 30 min | 21.1 µg/mL
C[C@@H]1O[C@@H](OC[C@H]2O[C@@H](Oc3c(-c4ccc(O)cc4)oc4cc(O[C@@H]5O[C@H](CO)[C@@H](O)[C@H](O)[C@H]5O)cc(O)c4c3=O)[C@H](O)[C@@H](O)[C@@H]2O)[C@H](O)[C@H](O)[C@H]1O | absorbance | – | 398 µM
c1ccc(-n2c(-c3ccco3)nc3ccccc32)cc1 | absorbance | – | 1.61 µM
CCCCSc1nnc(-c2ccc(C(C)(C)C)cc2)o1 | – | – | 71.6 µM
COc1cccc(C2NC(=O)NC(C)=C2C(C)=O)c1 (stereo not drawn) | – | – | 86.4 µM
O=[N+]([O-])c1ccc2[nH]c(-c3ccco3)nc2c1 | absorbance | – | 1.59 µM
CC(=NNC(=S)NN=C(C(=NO)c1ccccc1)c1ccccc1)c1ccccc1 | absorbance | 30 min | 11.6 µM
CCCCn1cc(C(=O)O)c(=O)c2cc(F)c(Nc3ccccc3OC)c(N)c21 | absorbance | 30 min | 37.7 µM
Nc1ccc(-c2nnc(S)o2)cc1 | – | – | 47 µM
N#C/C(=C\c1cn(-c2ccccc2)nc1-c1cccc(Cl)c1)c1nc2ccccc2[nH]1 | absorbance | – | 22 µM
CCCCn1cc(C(=O)O)c(=O)c2cc(F)c(Nc3ccc(OC)cc3)c([N+](=O)[O-])c21 | absorbance | 30 min | 71.6 µM
C[C@@H]1O[C@@H](OC(=O)/C=C/c2ccc(O)cc2)[C@H](OC(=O)/C=C/c2ccc(O)cc2)[C@H](O)[C@H]1O | – | 30 min | 20.4 µg/mL
Sc1nnc(-c2ccccc2)o1 | – | – | 90 µM
Cc1ccc(-c2nc3cc(F)ccc3[nH]2)o1 | absorbance | – | 1.36 µM
CCCCn1cc(C(=O)O)c(=O)c2cc(F)c3c(nnn3-c3ccccc3OC)c21 | absorbance | 30 min | 7890 µM
CCOC(=O)c1nn(-c2ccccc2)c2nc3nc(-c4ccccc4)cc(-c4ccc5ccccc5n4)c3c(=O)n12 | absorbance | 30 min | 138 µM
CC(=O)C1=C(C)NC(=O)NC1c1ccc(F)cc1F (stereo not drawn) | – | – | 35.6 µM
COc1cc(CN2CCN(c3cccc(Cl)c3)CC2)c2cc3[n+](cc2c1O)CCc1cc2c(cc1-3)OCO2 | absorbance | 30 min | 21.3 µg/mL
CC(=O)C1=C(C)NC(=O)NC1c1ccc(Br)cc1 (stereo not drawn) | – | – | 149 µM
N#C/C(=C\c1cn(-c2ccccc2)nc1-c1ccc(Br)cc1)c1nc2ccccc2[nH]1 | absorbance | – | 10.6 µM
CCCCSc1nnc(-c2ccccc2Cl)o1 | – | – | 68.2 µM
Oc1c(Br)ccc2cccnc12 | absorbance | 30 min | 597 µM
N#C/C(=C\c1cn(-c2ccccc2)nc1-c1ccc(Cl)cc1Cl)c1nc2ccccc2[nH]1 | absorbance | – | 249 µM
O=C1NC2=C(C(=O)N(c3ccc(Cl)cc3)C2)C(c2ccc(O)cc2)N1 (stereo not drawn) | absorbance | – | 0.61 µg/mL
COc1cc(CN2CCN(c3ccccc3[N+](=O)[O-])CC2)c2cc3[n+](cc2c1O)CCc1cc2c(cc1-3)OCO2 | absorbance | 30 min | 16.9 µg/mL
CC(=O)C1=C(C)NC(=O)NC1c1cccc(C)c1 (stereo not drawn) | – | – | 134 µM
C=C(CO)C(=O)O[C@H]1CC(=C)[C@@H]2C[C@H](O)[C@](O)(CCl)[C@@H]2[C@H]2OC(=O)C(=C)C12 (stereo partly drawn) | absorbance | – | ~121 µg/mL

Some of these lines once more:
Compound | method | time | IC50
COc1cc(CN2CCN(c3ccc(OC(F)(F)F)cc3)CC2)c2cc3[n+](cc2c1O)CCc1cc2c(cc1-3)OCO2 | absorbance | 30 min | 21.1 µg/mL
C[C@@H]1O[C@@H](OC[C@H]2O[C@@H](Oc3c(-c4ccc(O)cc4)oc4cc(O[C@@H]5O[C@H](CO)[C@@H](O)[C@H](O)[C@H]5O)cc(O)c4c3=O)[C@H](O)[C@@H](O)[C@@H]2O)[C@H](O)[C@H](O)[C@H]1O | absorbance | – | 398 µM
c1ccc(-n2c(-c3ccco3)nc3ccccc32)cc1 | absorbance | – | 1.61 µM
CCCCSc1nnc(-c2ccc(C(C)(C)C)cc2)o1 | – | – | 71.6 µM
